Measured values pooled from the literature.
Parts stem from different laboratories: compare values within a part only.

Sample 1 — method: protein-binding microarray; form: double-stranded DNA, one strand shown; sample: in vitro; tested at: 2200 nM top; setting: 60-bp whole probe; added: salmon DNA 0.4 mg/ml; baseline: random background probes; direction: higher = stronger binding; constant ends, left off below: GCCTAGCAC … GTCTTGATTCGCTTGACGCTGCTG
Target: Interferon regulatory factor 7, full length, phosphomimetic (IRF7, Homo sapiens, UniProt Q92985, residues 1-503, S471D/S472D/S475D/S476D/S477D/S483D/S484D/S487D)
Construct (chain): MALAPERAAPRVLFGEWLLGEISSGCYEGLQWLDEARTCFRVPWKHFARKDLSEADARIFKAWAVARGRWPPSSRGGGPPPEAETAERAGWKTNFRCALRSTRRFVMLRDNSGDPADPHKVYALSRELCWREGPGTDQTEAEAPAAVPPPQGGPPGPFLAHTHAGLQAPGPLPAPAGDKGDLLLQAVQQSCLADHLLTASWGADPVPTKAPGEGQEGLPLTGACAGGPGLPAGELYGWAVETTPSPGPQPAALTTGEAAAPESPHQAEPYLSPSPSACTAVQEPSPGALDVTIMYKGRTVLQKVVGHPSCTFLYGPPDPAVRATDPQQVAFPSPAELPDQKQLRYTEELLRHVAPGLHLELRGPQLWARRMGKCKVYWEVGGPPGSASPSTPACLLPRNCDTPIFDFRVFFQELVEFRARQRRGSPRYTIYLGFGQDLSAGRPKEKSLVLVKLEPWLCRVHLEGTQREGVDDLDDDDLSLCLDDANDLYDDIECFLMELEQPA
Sequence	fitted relative affinity [z-score]
TCAAATCTGTGTTATTAAACTGTGCTA	0.066
TTAGATCTAAGTCTCGATTAGTGCTAG	0.0932
GACGGTTCGCTTTTCCTGACGTGCTAG	2.1
AACCGCACAGAACTAAAACAGTGCTAG	-0.153
AAAAAAAATGGAAATCTACCCGTGCTA	-1.66
GACGATTTCTGTATCGAGACGTGCTAG	1.48
TTAGAACTGAGTCTCGAATAGTGCTAG	-0.414
GACGGTTTCGGTATCGGAACGTGCTAG	7.43
CAATACCTTATGAATGTGTTGTGCTAG	0.854
TTAGCACTGGGGACTGGGTTAGTGCTA	-0.746
CCAATTCTCTTTTCACTTTCGTGCTAG	5.31
TACGAACTGGGGTTTCGAGACGTGCTA	1.3
GACGATATCGGGACTGGACACGTGCTA	-0.128
TTAGGTATCGGTATCGGTTCGTGCTAG	1.81
TCACTTTTTTTTTTTTTACTGTGCTAG	2.54
GACGGTTTCGGTATCGGGGCGTGCTAG	8.39
TTAGATAGCGGGTTTCGATTAGTGCTA	2.1
GACGATATCGGCTATCGAGACGTGCTA	-0.24
AACGATATCGGGTTTCGAGACGTGCTA	1.83

Sample 2 — method: protein-binding microarray; form: double-stranded DNA, one strand shown; sample: in vitro; tested at: 0.8 µM; setting: whole 60-bp probe, no competitor; direction: higher = stronger binding; constant ends, left off below: … GTCTTGATTCGCTTGACGCTGCTG
Target: Centromere-binding protein 1, full length, N-terminal tag (CBF1, Saccharomyces cerevisiae, UniProt P17106, residues 1-351)
UniProt P17106, sequence (whole entry, looked up): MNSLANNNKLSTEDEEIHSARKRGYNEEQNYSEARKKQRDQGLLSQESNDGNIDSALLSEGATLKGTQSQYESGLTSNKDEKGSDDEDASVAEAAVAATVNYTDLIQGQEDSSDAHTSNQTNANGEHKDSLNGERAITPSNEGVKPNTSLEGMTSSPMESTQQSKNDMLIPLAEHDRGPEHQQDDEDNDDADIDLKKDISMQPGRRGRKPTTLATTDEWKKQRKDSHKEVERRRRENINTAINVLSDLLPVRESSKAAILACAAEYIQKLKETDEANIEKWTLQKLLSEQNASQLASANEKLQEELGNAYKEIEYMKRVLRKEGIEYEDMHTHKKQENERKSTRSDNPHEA
Sequence	fluorescence intensity
GAAAGCTGGTAGCTGCTGGTGACGATTTCCAGCTAG	517 a.u.
CTATGTTAATTGTATGGCGTGTGGCCTTTCTATTTC	545 a.u.
GAATTACGCATCCATCAGTTGCCACCCTCCTACTAG	499 a.u.
GAACTCTTATTTAGTAACGTGGTTTATTAACTCTAG	1210 a.u.
CTACTTTCCTCGCGTCACGGTGTCAGTAAAAAATTC	996 a.u.
GAATTATAAATGATACGCACCACCAGGTGAAGGTAG	528 a.u.
CTACAGCTTTAGACTCACATGGGTTCTCATGAGTTC	634 a.u.
GAAGAAAAATTTCATCAGACTTTCTTGTAATATTAG	512 a.u.
CTATACTTAATGCTTATCGTGATCGCAATACAATTC	650 a.u.
GAAAGTTTCACGTTTCATCACATGAAAGTGTGGTAG	1310 a.u.
GAACTTTTATTAAGTCTGATGACTATTTCTCATTAG	627 a.u.
GAACCTGCTATGCTCCACATGTTAAAGGGAAAATAG	591 a.u.
GAAGAGACCGCAAAACACGTGTACGCACGTAGCTAG	5560 a.u.
CTATCTGCAAGAGCACGTGCGACGTGTCTGGTGTTC	10300 a.u.
GAAATGATGCTCCACGTGGTAATATGACTATGCTAG	4700 a.u.
GAACACAAAATATCAAACGTGTTGTATTACGGGTAG	550 a.u.
GAACTTACTCTCGCGCACGATCTTGAATTGTGGTAG	534 a.u.
CCTAACTACTATAAACACGTGAGATAGCTTCGTACA	3890 a.u.
GAAGCAAACGAGAAAAACGTGCCAACCTGGCATTAG	653 a.u.
CTAATAAGAGAGCGGAGCACGTGGGAAAAGAGATTC	3380 a.u.
GAAAAAAAAATGCATTACATCACGTTCCTTGCTTAG	1090 a.u.
GAAATTATGATATATATCATGATGATTATTTTCTAG	530 a.u.
GAATGTATCTATACTAGCGTGGTGTGCATAATTTAG	545 a.u.
CTATCTATAATAGGTGGTGCCTTCTTGCTTCTTTTC	495 a.u.
CCTAACTACTATAAGCTCGTGCTATAGCTTCGTACA	613 a.u.

Sample 3 — method: RNA Bind-n-Seq; form: RNA; sample: in vitro; tested at: 1 µM; setting: whole 134-nt RNA, ends assumed; added: 150 mM KCl; baseline: input library; direction: higher = stronger binding
Target: Ras GTPase-activating protein-binding protein 1, RRM domain (G3BP1, Homo sapiens, UniProt Q13283)
UniProt Q13283, sequence (whole entry, looked up): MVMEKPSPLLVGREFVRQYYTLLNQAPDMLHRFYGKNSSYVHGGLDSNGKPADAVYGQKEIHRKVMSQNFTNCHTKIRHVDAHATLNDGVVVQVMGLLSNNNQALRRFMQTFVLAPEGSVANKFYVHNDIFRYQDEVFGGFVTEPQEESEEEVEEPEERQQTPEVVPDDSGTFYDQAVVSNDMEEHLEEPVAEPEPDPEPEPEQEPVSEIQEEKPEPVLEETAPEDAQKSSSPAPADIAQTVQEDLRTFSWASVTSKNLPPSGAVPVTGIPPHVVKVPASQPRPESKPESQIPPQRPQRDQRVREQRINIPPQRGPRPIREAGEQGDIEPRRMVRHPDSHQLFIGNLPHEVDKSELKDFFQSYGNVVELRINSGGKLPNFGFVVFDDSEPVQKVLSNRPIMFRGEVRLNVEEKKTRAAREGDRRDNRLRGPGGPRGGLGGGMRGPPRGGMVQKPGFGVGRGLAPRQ
Constant ends, left off below: GGGAGUUCUACAGUCCGACGAUC … UGGAAUUCUCGGGUGUCAAGG
Sequence	log2 enrichment
CAAGUCCUGUGCUACACAUCGUAUGUACCGAAUCGGCCCCGGCCCCGGGGCCCCGGAAAGUAUUAUGUUACGCCGUUCGGAUCUGCACUU	-0.47
ACCAUGCGGGUGGGCAUCUUUGGGAAGUGGGGCAAGGGGGGGAUAGGGAGGGGGGUAACACUUUGGGAACAGGUGGUCCCAGGUCGUUUC	-0.658
CUCAAGUCCUGUGCUACACAUCGUAUGUACCGAAUCGGAAAAAGGAGGAAAGGAAAGUAUUAUGUUACGCCGUUCGGAUCUGCACUUCCA	-0.213
CUGUGCUACACAUCGUAUGUACCGAAUCGGGGAAAGGGGUUUUUUUGGGGAAAAAAAGGGGAAAGUAUUAUGUUACGCCGUUCGGAUCUG	0.43
CACAGACAACACGCACCCACACAGACACAGAGGGAAGGGAUUGGGAUGGGGACAGGGUGCACAGCAGGGCGGGGUAGGACCCCAGCCCCU	-0.0458
AGUCCUGUGCUACACAUCGUAUGUACCGAAUCAAACCCCCCCAAACCCAAAUUUAAAAAAGUAUUAUGUUACGCCGUUCGGAUCUGCACU	-0.141
UCCUGUGCUACACAUCGUAUGUACCGAAUCGGGGAAAAAGGGGUGGGGAAAAAAAGGGGAAAGUAUUAUGUUACGCCGUUCGGAUCUGCA	0.655
UCCUCAAGUCCUGUGCUACACAUCGUAUGUACCGAAUCGGGGUGGUGGUGGAAAGUAUUAUGUUACGCCGUUCGGAUCUGCACUUCCAGC	-0.249
AGUCCUGUGCUACACAUCGUAUGUACCGAAUCGGGUUUUUUUGGGAAAGGGUUUGGGAAAGUAUUAUGUUACGCCGUUCGGAUCUGCACU	0.278
CCUGUGCUACACAUCGUAUGUACCGAAUCGGGGCCCCCCGGGGCCCCCCGGGCCCCCCGGGAAAGUAUUAUGUUACGCCGUUCGGAUCUG	-0.59
CCUGUGCUACACAUCGUAUGUACCGAAUCGGCCCCCCGGGGCCCCCCGGGGCCCCCCGGGAAAGUAUUAUGUUACGCCGUUCGGAUCUGC	-0.702
UCCUUUCUGUCAUUUUACACCCACAGUUGAAGAUUCCUGUCUCUGGAUCCAAAUCAGAGGGCCUUCUCUACGUCCACUCAUCCAGAGGUG	-0.214
UCAAGUCCUGUGCUACACAUCGUAUGUACCGAAUCGGUUUGGAGGAAAAAAAGGAAAGUAUUAUGUUACGCCGUUCGGAUCUGCACUUCC	-0.127
ACCAUGCAGGUGGGCAUCUUUGGGAAGCGGGGCAAGGGGGGGAUAGGGAGGGGGGUAACACUUUGGGAACAGGUGGUCCCAGGUCGUUUC	-0.507

Sample 4 — target: human cyclin A2; effect on: peptide binding; method: competitive growth sequencing; form: peptide; organism: Saccharomyces cerevisiae; strain: cyclin A2-Cln2 fusion strain; tested at: concentration not given; setting: peptide tiling library; baseline: unfused Cln2 strain; direction: direction not given
Molecule	binding score
EVTKVRRNLFNQELLS	1.7
ALLRRLQDVANDRGSH	0.683
RTSACASAFGPVDHEE	-0.376
NESHLDKEHDAVEVAD	-0.159
CFRCLLFSFSGRSGVE	0.683
NLEPNAEFDKRTEFIT	0.469
RDLFDCDFGDLTPLDF	0.0912
KPKPVKPVTFSTGIKM	-0.504
SFLIEYEFLIPPSLKP	0.231
GPVKLEFDVSDGAT	0.21
RRRRLLFWDKETQI	1.56
NCKKRRALDFLSRLPL	0.302
EHCRVLFLDHVMYTIH	0.258
TSNARASANFGGSTGT	-0.121
GLPDFVFQQQPVESEA	0.49
VEEEFFALRKRTPSAG	0.66
FEKVKRRLDLDIDGLQ	2.04
TAGSAKARAFGEDPPK	-0.449
LFVPQRKLEVSTEDVH	0.273
DKYDEGLYRFNSLNDL	0.194
KVRRNLFNQELLSP	2.17
YLYLLLTQSLWCRV	1.04
ATNSSHTDAHEILVSD	0.496
IQKKLRFEDTLEFVGF	0.977
EPKTLFLGAGDFQF	0.589

A few entries again (sample 4):
Molecule	binding score
RRRRLLFWDKETQI	1.56
NCKKRRALDFLSRLPL	0.302
EHCRVLFLDHVMYTIH	0.258
TSNARASANFGGSTGT	-0.121
GLPDFVFQQQPVESEA	0.49
VEEEFFALRKRTPSAG	0.66
FEKVKRRLDLDIDGLQ	2.04
TAGSAKARAFGEDPPK	-0.449
LFVPQRKLEVSTEDVH	0.273
DKYDEGLYRFNSLNDL	0.194
KVRRNLFNQELLSP	2.17
YLYLLLTQSLWCRV	1.04
ATNSSHTDAHEILVSD	0.496
